{"data": "Experimental data pooled from the literature", "note": "Parts stem from different laboratories: compare values within a part only. Changes are numbered by the printed parent chain.", "sequence of UniProt Q9UQM7 (whole entry, looked up)": "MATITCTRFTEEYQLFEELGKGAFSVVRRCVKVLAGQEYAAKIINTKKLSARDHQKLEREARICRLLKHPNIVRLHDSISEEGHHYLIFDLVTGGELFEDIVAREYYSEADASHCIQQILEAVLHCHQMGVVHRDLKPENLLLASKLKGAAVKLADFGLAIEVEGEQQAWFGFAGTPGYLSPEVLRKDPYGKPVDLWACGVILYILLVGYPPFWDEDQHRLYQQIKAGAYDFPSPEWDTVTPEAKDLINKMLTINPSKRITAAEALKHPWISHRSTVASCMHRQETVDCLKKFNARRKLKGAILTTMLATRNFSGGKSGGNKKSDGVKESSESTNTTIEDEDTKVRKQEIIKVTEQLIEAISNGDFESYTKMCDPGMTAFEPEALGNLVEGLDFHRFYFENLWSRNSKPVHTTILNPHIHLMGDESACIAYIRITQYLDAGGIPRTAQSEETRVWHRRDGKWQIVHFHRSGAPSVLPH", "sequence of UniProt P61075 (whole entry, looked up)": "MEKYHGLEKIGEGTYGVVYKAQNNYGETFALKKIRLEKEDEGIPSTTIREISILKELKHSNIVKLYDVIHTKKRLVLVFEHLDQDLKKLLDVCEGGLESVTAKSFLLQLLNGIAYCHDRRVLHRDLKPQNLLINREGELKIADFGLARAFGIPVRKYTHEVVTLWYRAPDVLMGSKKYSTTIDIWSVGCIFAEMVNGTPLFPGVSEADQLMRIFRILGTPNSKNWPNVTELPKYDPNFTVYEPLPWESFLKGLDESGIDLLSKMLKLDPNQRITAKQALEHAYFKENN", "sequence of UniProt O75417 (whole entry, unmodified, looked up)": "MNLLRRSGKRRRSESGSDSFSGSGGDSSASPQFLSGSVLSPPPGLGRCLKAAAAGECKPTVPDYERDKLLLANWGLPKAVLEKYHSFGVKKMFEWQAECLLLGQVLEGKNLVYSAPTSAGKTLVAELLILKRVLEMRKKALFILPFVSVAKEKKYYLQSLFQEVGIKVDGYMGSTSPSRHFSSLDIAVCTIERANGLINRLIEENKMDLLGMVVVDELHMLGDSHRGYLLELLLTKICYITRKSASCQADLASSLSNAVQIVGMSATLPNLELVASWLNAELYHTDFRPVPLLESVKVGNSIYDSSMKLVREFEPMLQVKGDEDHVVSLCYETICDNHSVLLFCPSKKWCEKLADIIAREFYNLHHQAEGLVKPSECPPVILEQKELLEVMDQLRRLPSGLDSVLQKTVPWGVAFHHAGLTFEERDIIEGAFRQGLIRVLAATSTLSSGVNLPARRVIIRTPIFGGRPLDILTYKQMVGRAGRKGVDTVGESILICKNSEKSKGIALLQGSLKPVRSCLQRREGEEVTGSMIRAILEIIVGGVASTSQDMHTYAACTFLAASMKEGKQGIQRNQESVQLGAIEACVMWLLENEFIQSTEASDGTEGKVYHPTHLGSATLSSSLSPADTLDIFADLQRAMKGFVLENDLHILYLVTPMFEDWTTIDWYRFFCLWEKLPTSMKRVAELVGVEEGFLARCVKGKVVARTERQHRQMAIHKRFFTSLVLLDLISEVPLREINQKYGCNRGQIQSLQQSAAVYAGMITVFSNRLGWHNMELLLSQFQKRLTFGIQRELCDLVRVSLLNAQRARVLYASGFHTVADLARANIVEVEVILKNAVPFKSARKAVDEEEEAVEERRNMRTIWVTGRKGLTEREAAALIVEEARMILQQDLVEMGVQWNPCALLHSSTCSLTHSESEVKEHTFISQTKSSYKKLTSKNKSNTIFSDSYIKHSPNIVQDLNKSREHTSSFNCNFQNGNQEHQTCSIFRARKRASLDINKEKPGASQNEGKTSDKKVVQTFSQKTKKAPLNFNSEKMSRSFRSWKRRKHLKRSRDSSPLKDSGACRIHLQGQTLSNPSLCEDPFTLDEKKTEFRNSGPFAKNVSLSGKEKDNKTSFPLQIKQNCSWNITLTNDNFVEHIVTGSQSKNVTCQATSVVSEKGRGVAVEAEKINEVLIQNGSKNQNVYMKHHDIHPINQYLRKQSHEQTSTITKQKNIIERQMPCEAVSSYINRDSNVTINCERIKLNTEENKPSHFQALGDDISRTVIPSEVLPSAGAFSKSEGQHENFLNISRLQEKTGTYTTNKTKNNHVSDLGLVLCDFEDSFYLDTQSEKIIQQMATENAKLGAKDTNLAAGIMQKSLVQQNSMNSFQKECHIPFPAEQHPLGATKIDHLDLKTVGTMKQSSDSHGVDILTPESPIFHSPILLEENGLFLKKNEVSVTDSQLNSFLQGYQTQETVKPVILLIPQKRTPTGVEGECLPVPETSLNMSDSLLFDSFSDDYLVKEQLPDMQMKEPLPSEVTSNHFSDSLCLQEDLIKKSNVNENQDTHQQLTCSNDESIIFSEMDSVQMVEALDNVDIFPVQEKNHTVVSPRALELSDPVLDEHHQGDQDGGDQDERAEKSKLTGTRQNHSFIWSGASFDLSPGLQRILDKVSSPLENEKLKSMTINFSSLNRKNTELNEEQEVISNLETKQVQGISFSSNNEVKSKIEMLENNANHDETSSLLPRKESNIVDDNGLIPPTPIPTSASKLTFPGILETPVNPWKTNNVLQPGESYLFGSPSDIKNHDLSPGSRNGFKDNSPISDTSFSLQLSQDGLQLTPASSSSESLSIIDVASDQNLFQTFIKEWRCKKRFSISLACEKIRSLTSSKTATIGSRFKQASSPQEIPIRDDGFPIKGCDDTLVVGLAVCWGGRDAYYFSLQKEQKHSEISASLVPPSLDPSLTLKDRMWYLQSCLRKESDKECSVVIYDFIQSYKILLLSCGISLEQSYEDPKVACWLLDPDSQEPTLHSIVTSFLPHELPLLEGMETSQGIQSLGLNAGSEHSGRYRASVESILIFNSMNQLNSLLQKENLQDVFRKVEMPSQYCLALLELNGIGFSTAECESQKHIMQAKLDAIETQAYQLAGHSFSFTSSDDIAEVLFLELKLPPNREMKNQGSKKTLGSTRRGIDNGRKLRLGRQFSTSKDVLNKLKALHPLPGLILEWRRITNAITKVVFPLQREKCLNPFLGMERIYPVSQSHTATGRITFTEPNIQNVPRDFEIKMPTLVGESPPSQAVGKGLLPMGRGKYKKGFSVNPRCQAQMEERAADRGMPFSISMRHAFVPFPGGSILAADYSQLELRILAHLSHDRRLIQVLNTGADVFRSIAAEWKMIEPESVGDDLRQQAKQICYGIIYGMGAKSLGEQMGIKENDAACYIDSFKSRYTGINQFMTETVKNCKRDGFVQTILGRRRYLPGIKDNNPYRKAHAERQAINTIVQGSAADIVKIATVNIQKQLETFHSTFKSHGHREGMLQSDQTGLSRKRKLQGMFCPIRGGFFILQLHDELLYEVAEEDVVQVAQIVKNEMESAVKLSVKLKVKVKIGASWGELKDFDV", "sequence of UniProt P62344 (whole entry, looked up)": "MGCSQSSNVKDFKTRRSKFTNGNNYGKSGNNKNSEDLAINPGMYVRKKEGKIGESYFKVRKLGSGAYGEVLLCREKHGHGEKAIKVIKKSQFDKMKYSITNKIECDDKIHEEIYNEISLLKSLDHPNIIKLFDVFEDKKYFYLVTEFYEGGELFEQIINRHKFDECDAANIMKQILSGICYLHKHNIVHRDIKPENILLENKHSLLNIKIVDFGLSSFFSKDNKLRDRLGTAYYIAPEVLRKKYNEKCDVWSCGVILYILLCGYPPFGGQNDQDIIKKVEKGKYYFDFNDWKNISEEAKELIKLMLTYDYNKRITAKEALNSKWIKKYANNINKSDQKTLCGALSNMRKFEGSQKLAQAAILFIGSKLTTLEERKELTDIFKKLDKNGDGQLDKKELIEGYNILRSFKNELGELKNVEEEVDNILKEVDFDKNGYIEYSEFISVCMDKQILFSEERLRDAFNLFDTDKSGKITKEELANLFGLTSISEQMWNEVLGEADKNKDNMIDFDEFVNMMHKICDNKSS"}
{"data": "Set 1", "target": "HLA class I histocompatibility antigen, C alpha chain, allele C*04:01 (Homo sapiens, UniProt P10321)", "effect on": "peptide-MHC binding", "form": "peptide", "concentration": "concentration not given"}
{"Molecule": "YWDQVTFFY", "binding": "inactive"}
{"Molecule": "ALRQARAAF", "binding": "inactive"}
{"Molecule": "FTFDLTALK", "binding": "inactive"}
{"Molecule": "VTFGARASF", "binding": "inactive"}
{"Molecule": "TFVPIAWAAAY", "binding": "inactive"}
{"Molecule": "MTMSYLSTR", "binding": "inactive"}
{"Molecule": "RFVLALLAF", "binding": "inactive"}
{"Molecule": "MVRQMRAAL", "binding": "inactive"}
{"data": "Set 2", "target": "CCNE1, cyclin fold, Cln2 fusion (human)", "technique": "yeast growth competition, sequencing", "matrix": "yeast", "notes": "strong parent motif", "baseline": "not given", "direction": "higher = stronger binding", "starting sequence": "viral docking peptide; CKVKRKLFGSENI"}
{"Substitution": "CKVARKLFGSENI [K4A]", "normalised enrichment score": 3.75}
{"Substitution": "CKVKRKLFGSANI [E11A]", "normalised enrichment score": 3.57}
{"Substitution": "CKVKKKLLGSENI [R5K F8L]", "normalised enrichment score": -0.00208}
{"Substitution": "CKVKAKAFGSENI [R5A L7A]", "normalised enrichment score": 0.191}
{"data": "Other studies, line by line"}
{"Compound": "O=S(=O)(NC1CCC(c2cc(F)ccc2F)(S(=O)(=O)c2ccc(Cl)cc2)CC1)C(F)(F)F (stereo not shown)", "target": "Cyclin-dependent kinase 2 homolog (CRK2, Plasmodium falciparum, UniProt P61075)", "test": "cell-free assay, competition with immobilised ligand", "setting": "1 µM", "endpoint": "remaining binding", "value": "100%"}
{"Compound": "Cc1cc(=O)c2c(O)c3c(O)cc(O)c4c5c(O)cc(O)c6c(O)c7c(=O)cc(C)c8c1c2c(c34)c(c65)c78", "target": "Calcium/calmodulin-dependent protein kinase type II subunit alpha (CAMK2A, Homo sapiens, UniProt Q9UQM7)", "test": "enzyme activity, inhibitor", "setting": "10 µM", "endpoint": "inhibition", "value": "3%"}
{"Compound": "CN(c1ccnc(CNc2nc(Nc3ccc4c(c3)CC(=O)N4)ncc2C(F)(F)F)n1)S(C)(=O)=O", "target": "Calcium-dependent protein kinase 1 (CDPK1, Plasmodium falciparum, UniProt P62344)", "test": "cell-free assay, competition with immobilised ligand", "setting": "1 µM", "endpoint": "remaining binding", "value": "84%"}
{"Compound": "CNC(C)(C)Cc1ccccc1", "target": "DNA polymerase theta, ATPase domain (POLQ, Homo sapiens, UniProt O75417)", "test": "enzyme activity, inhibitor", "setting": "77 µM", "how to read": "baseline: untreated", "endpoint": "remaining activity", "value": "96.3%"}
{"note": "For quick reference, copied from above (set 1):"}
{"Molecule": "TFVPIAWAAAY", "binding": "inactive"}
{"Molecule": "MVRQMRAAL", "binding": "inactive"}
